Experimental data pooled from the literature.
Each numbered part is a random draw from the data of one study; scales do not carry over between parts.

Block 1
Target: Cellular tumor antigen p53, full length (TP53, Homo sapiens, UniProt P04637, residues 1-393)
Technique: protein-binding microarray
Molecule type: hairpin DNA
Sample: in vitro
Tested at: not given
Notes: whole hairpin DNA, median over replicate spots
Baseline: not given
Direction: higher = stronger binding
| Sequence | median fluorescence |
| --- | --- |
| CGGACATGCCCGGTCATGTCTCCTGACATGACCGGGCATGTCCGACACTC | 13700 a.u. |
| CCACACGTGCTGGCATGCCTTCCTAGGCATGCCAGCACGTGTGGACACTC | 7550 a.u. |
| CCACACGTGGTGCGATGCCTTCCTAGGCATCGCACCACGTGTGGACACTC (5mC at 13) | 4620 a.u. |
| CCACACCGGGTGGCATGCCTTCCTAGGCATGCCACCCGGTGTGGACACTC (5mC at 7 37) | 6600 a.u. |
| CCAAACGTGGTGGCATGCCTTCCTAGGCATGCCACCACGTTTGGACACTC | 8660 a.u. |
| CGGACATGCCCCGGCATGTCTCCTGACATGCCGGGGCATGTCCGACACTC (5mC at 12 32) | 12500 a.u. |
| CCACACGTGGTGCCATGCCTTCCTAGGCATGGCACCACGTGTGGACACTC (5mC at 13) | 4440 a.u. |
| CCACACGTGGTGGAATGCCTTCCTAGGCATTCCACCACGTGTGGACACTC | 4110 a.u. |

Block 2
Target: PABPC1L2, full length, GST fusion (mouse, UniProt A0ABA7IW68)
Technique: RNAcompete
Molecule type: RNA
Sample: in vitro
Tested at: 20 nM
Notes: 7-mer, probes averaged, single round
Baseline: mean of 7-mers
Direction: higher = stronger binding
Target sequence (chain): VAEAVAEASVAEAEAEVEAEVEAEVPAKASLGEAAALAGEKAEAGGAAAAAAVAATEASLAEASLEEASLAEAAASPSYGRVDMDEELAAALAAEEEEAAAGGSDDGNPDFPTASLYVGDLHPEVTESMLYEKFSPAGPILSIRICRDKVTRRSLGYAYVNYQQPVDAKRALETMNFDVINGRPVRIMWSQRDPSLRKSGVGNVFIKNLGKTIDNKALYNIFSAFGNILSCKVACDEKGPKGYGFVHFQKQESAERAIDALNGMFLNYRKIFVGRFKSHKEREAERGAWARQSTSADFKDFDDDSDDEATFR
| Sequence | 7-mer Z-score |
| --- | --- |
| GGACUUU | -0.0409 |
| GCACAGA | 0.0207 |
| GGUUAUU | -0.184 |
| CCGGAAU | -0.15 |
| ACCAGCG | -0.0554 |
| GGCGUGU | -0.0754 |
| GGGAAAU | 0.196 |
| GCGUCGG | -0.32 |

Block 3
Target: Interferon regulatory factor 3, full length, phosphomimetic (IRF3, Homo sapiens, UniProt Q14653, residues 1-427, S386D/S396D/S398D/S402D/T404D/S405D)
Technique: protein-binding microarray
Molecule type: double-stranded DNA, one strand shown
Sample: in vitro
Tested at: 2540 nM top
Notes: 60-bp whole probe
Added: salmon DNA 0.4 mg/ml
Baseline: random background probes
Direction: higher = stronger binding
Constant ends, left off below: GCCTAGCAC … GTGCTAGGTCTTGATTCGCTTGACGCTGCTG
Target sequence (chain): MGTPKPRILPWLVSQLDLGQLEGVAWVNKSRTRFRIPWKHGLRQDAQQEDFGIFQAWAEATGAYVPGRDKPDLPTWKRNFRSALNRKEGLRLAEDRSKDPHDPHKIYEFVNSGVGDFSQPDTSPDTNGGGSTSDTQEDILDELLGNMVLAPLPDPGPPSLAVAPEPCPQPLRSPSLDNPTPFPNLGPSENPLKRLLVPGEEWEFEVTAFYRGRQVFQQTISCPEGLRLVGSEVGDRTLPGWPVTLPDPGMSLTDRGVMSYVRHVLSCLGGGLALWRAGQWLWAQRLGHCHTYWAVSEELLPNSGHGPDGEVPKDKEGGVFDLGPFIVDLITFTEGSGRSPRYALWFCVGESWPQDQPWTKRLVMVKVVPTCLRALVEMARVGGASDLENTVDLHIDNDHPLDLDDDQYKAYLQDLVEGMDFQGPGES
| Sequence | fitted relative affinity [z-score] |
| --- | --- |
| GACGTTCTCAGTATCGAGAC | 1.51 |
| TCATACATGTGTTTAAGACT | 0.0813 |
| TCAAATATATGTATATAACT | 0.22 |
| AAAAATGATTGGTTGAACAT | -0.0893 |
| ATATATATCCATTATAGATG | 1.62 |
| AACTAAAGAGACCACAAAAA | 0.172 |
| AGCTTTCCCAACATCAGAGC | 3.71 |
| TCAACTTCTCTTTTGGCACT | 0.957 |

Further values, each from its own experiment
| Sequence | target | effect on | molecule type | tested at | quantity | result |
| --- | --- | --- | --- | --- | --- | --- |
| FTYAPAGMY | HLA class I histocompatibility antigen, A alpha chain, allele A*26:03 (Homo sapiens, UniProt P04439) | peptide-MHC binding | peptide | concentration not given | binding | inactive |

For quick reference, copied from above (block 3):
| Sequence | fitted relative affinity [z-score] |
| --- | --- |
| ATATATATCCATTATAGATG | 1.62 |
| AACTAAAGAGACCACAAAAA | 0.172 |
| AGCTTTCCCAACATCAGAGC | 3.71 |
